Measured values from different studies.
Every numbered part comes from another study and shows a few of its results, in no order. Changes are numbered by the printed parent chain.

Sample 1
Target: RNA binding protein fox-1 homolog 2, RRM domain, GST-SBP tag (RBFOX2, Homo sapiens, UniProt O43251-10, residues 100-194)
Method: RNA Bind-n-Seq
Form: RNA
Medium: in vitro
Concentration: 365 nM
Setting: natural RNA segment, single round, ends assumed
Baseline: no-protein control
Reading: higher = stronger binding
Shared flanks, not repeated: GGGAGUUCUACAGUCCGACGAUC … UGGAAUUCUCGGGUGCCAA
Construct (chain): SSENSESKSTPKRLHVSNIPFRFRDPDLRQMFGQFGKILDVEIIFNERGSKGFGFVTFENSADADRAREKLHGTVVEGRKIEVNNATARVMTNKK
Strand | RBNS enrichment (R)
UCAUAUACUGCCAUGUACUAGUUUUAGUUUUCUCUUAGAACAUUGUAUUACAGAUGCCUUUUUUGUAGUUUUUUUUUUUUUUAUGUGAUCAAUUUUGACUUAAUGUGAUU | 1.85
CCUGGCCACUGAUGGCUGAGUUUUAUGGCAAGAGGCUGAGAUGGGCACAGGGAGCCACUGAGGGUCACCCUGCCUUCCUCCUUGCUGGCCCAGCUGCUGUUUAUUUAUGC | 0.565
UGUCUGUCUGUACGUUUAAUUGAUAGCACCUCUGCCGUGUGUCAUCAACUACUAGACAGCCAGGCUAAGCCUUCUCAUUCUGUUCUGAAGAUUCUAAAAAAAUUCGAACC | 0.271
GAGAAUGGAGGGGAACCAGGCGUCCUUGGAGGCAGCUUGGGAGGGUGACUGUGUAGUGUCACCCACAAGGGAGGCUAGGGCAAUGGAGCAGGCCACCAGCAGCAGCUGUG | 0.828
AGGGCACAAACCACUCCACAGUCCCAGUGUGGAGUCACAGUCUAGAGAGAAUUGGAAAUGCACGUGCUUAAAUGAUACAGCUUUAAUCUGUAUUAUGACUGCUGGUGGUA | 0.498
GAGGUGUGUCCUGGCCCUGCGGAGAGAAGAGGCCUGUGGUUCAGCUGGCACGCUCUGCUCCAGGCUCUGACUCAGGGGUGGCUGAGCCUCAUGCUCCCAGAACCAUGCAU | 0.684

Sample 2
Target: Histone acetyltransferase KAT6A, both winged helices, GST fusion (KAT6A, Homo sapiens, UniProt Q92794, residues 1-181)
Method: protein binding microarray
Form: double-stranded DNA, one strand shown
Medium: in vitro
Concentration: not given
Setting: 8-mer, flanks averaged, mean of 2 arrays, mostly near background
Baseline: not given
Reading: higher = stronger binding
Target sequence (chain): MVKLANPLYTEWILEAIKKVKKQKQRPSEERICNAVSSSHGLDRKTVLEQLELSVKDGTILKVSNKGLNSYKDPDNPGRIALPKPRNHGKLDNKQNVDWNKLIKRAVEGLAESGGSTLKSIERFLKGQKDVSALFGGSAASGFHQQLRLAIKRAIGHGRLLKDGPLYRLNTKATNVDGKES
Strand | E-score
ACACGCCG | 0.281
CACTCCCG | 0.068
GTGAGCTA | -0.167
TACAGACA | -0.142

Sample 3
Target: CCND3, cyclin fold, Cln2 fusion (human)
Method: yeast growth competition, sequencing
Medium: yeast
Setting: weak parent motif
Baseline: not given
Reading: higher = stronger binding
Starting sequence: BRCA2 docking peptide (human); PSIKRNLLNEFDR
Substitution | normalised enrichment score
R13I | 0.324
S2G | 0.0219
L7H | 0.0681
L7K | 0.103
N6Q | 0.0458
I3Q | 0.0112
I3Y | 0.142

Further values, each from its own experiment
Molecule | target | assay | test system | setting | how to read | endpoint | result
PhoQ, residues 284 288 289 292 302 303 ASTSDA | PhoP, residues 12 14 15 18 19 TTLRV (Escherichia coli, UniProt P23836) | Sort-seq, refers to: YFP reporter | E. coli | PhoQ-PhoP variant library, together with: 10 µM Mg2+ | baseline: high Mg2+ state, higher = stronger signaling | fold induction | 4.13

Repeated from above (sample 2):
Strand | E-score
GTGAGCTA | -0.167
ACACGCCG | 0.281
CACTCCCG | 0.068
